Experimental data pooled from the literature.
A part holds a random share of what one study measured. Changes are numbered by the printed parent chain.

Set 1
Target: Interferon regulatory factor 7, full length, phosphomimetic (IRF7, Homo sapiens, UniProt Q92985, residues 1-503, S471D/S472D/S475D/S476D/S477D/S483D/S484D/S487D)
Technique: protein-binding microarray
Molecule type: double-stranded DNA, one strand shown
Sample: in vitro
Concentration: 2200 nM top
Setting: 60-bp whole probe
With: salmon DNA 0.4 mg/ml
Relative to: random background probes
Reading: higher = stronger binding
Quantity: fitted relative affinity
Shared flanks, not repeated: GCCTAGCAC … GTCTTGATTCGCTTGACGCTGCTG
Residues (chain): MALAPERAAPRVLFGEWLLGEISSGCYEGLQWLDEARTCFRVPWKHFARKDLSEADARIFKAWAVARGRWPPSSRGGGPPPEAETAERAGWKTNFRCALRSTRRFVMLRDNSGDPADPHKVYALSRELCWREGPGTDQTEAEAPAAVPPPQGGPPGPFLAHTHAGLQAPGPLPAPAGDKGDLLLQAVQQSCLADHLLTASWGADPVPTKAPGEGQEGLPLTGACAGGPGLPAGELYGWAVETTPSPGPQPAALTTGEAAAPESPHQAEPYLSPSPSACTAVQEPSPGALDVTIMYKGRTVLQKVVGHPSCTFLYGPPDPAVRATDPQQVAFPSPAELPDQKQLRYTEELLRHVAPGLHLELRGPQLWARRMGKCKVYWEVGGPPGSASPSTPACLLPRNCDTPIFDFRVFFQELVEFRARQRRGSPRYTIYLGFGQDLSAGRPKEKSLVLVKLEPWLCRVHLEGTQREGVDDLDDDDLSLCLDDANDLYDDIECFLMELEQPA
GACGATTTCGGGCTTCGAGACGTGCTA: 1.36 z-score
GACGGTATCGGTACCGGGACGTGCTAG: 0.337 z-score
GACGGTATCCTTATCTTGACGTGCTAG: 1.09 z-score
TTCATTATTGTTTCCTCTTTGTGCTAG: 2.82 z-score
GACGGTATCGGAATGGGGACGTGCTAG: 0.159 z-score
TCAAGTCTTGTTTTACAACTGTGCTAG: 0.955 z-score
TTAGGTATCGACTATCGGTTGGTGCTA: 0.619 z-score
GACGGTTTCGGGACTGGGGATGTGCTA: 3.38 z-score

Set 2
Change: H34P
Target: ABI1, truncated, D143A, DHFR fusion (Arabidopsis thaliana)
Technique: DHFR PCA, deep sequencing
Sample: yeast
Setting: methotrexate growth selection, single substitutions
Relative to: wild-type fitted maximum
Reading: higher = stronger binding
Quantity: relative binding score
Parent: PYL1, truncated, DHFR fusion (Arabidopsis thaliana); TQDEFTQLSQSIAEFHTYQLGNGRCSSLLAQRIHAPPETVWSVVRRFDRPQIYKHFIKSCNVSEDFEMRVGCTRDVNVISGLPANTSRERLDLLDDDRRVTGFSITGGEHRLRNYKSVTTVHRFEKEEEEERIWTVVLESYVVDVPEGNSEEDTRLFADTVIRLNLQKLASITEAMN
with: (+)-ABA 2500 µM: 109%
with: (+)-ABA 0.39 µM: 5%
with: (+)-ABA 1.4 µM: 10.8%
with: (+)-ABA 0.032 µM: 0.658%
with: (+)-ABA 58 µM: 78%
with: (+)-ABA 17 µM: 62.1%

Single results of other studies
P1: viral docking peptide; YKVKRRLVFGADD; partner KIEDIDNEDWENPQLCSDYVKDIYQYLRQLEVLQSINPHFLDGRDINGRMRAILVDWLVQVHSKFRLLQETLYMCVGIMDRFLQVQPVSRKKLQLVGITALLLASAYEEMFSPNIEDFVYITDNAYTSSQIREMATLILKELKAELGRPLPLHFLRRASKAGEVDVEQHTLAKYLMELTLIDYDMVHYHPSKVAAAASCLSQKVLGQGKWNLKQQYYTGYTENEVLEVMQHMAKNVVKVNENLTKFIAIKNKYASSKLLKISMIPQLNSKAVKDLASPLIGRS
SUCLG1 (Homo sapiens, UniProt P53597)  interaction screen (SUCLG2 (Homo sapiens, UniProt Q96I99); cross-linking MS; hits only): cross-linked
P1 V3I  normalised enrichment score (CCNB2, cyclin fold, Cln2 fusion (human); yeast growth competition, sequencing; yeast; strong parent motif; relative to: not given, higher = stronger binding): 2.1
RPN1 (Homo sapiens, UniProt P04843)  cross-linked residues (STT3A (Homo sapiens, UniProt P46977); cross-linking MS; cell fractions; with: DSSO): K599 to K440
PhoQ, residues 284 288 289 292 302 303 SCCLKL  fold induction (PhoP, residues 12 14 15 18 19 LHHVQ (Escherichia coli, UniProt P23836); Sort-seq, refers to: YFP reporter; E. coli; PhoQ-PhoP variant library, with: 10 µM Mg2+; relative to: high Mg2+ state, higher = stronger signaling): 0.897
TTC7B (Homo sapiens, UniProt Q86TV6)  interaction screen (HYCC1 (Homo sapiens, UniProt Q9BYI3); cross-linking MS; hits only): cross-linked
FLOT1 (Homo sapiens, UniProt O75955)  cross-linked residues (ARHGEF7 (Homo sapiens, UniProt Q14155); cross-linking MS; cell fractions; with: DSSO): K198 to K535

Excerpt of the above (set 1):
TTAGGTATCGACTATCGGTTGGTGCTA: 0.619 z-score
